Measurements pooled from the literature.
Parts stem from different laboratories: compare values within a part only. Positions count from the first letter of the parent shown.

Block 1
Target: CCNB1, cyclin fold, Cln2 fusion (human)
Method: yeast growth competition, sequencing
Sample: yeast
Setting: weak parent motif
Baseline: not given
Reading: higher = stronger binding
Quantity: normalised enrichment score
Starting sequence: CDKN1A docking peptide (human); SKACRRLFGPVDS
P10A: 0.458
K2W: 0.0291
R5C: 0.0887
R5S: -0.165
K2F: 0.373
C4V: 0.452
L7E: -0.303
V11D: 0.726
F8P: 0.0813
R6A: 0.239
C4P: 0.219
A3T: 0.523
R5K: 0.247
K2V: 0.631
V11S: 0.0702
G9R: 0.138
D12P: 0.342
C4K: -0.0489
K2D: 0.478
L7K: 0.505
L7S: 0.18
G9W: 0.289
R5L: 0.153

Block 2
Target: Interferon regulatory factor 7, full length, phosphomimetic (IRF7, Homo sapiens, UniProt Q92985, residues 1-503, S471D/S472D/S475D/S476D/S477D/S483D/S484D/S487D)
Method: protein-binding microarray
Form: double-stranded DNA, one strand shown
Sample: in vitro
Tested at: 2200 nM top
Setting: 60-bp whole probe
Added: salmon DNA 0.4 mg/ml
Baseline: random background probes
Reading: higher = stronger binding
Quantity: fitted relative affinity
Constant ends, left off below: GCCTAGCAC … GTCTTGATTCGCTTGACGCTGCTG
Residues (chain): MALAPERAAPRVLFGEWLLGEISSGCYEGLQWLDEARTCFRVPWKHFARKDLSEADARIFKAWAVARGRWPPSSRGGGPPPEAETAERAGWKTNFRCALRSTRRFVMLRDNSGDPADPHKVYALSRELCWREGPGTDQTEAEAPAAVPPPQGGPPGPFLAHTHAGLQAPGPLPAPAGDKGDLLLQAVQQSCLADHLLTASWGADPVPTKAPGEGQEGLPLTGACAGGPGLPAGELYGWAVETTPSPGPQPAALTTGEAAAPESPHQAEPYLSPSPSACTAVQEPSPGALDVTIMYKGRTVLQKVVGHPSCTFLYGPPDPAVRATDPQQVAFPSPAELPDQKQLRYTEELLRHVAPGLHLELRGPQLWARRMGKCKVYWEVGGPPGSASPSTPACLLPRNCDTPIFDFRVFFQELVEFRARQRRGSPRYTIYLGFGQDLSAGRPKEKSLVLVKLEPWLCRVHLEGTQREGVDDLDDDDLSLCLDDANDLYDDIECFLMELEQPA
GTGGTTTTCATTATTGCTTCGTGCTAG: 2.65 z-score
TCATTTTTTCATATATAACTGTGCTAG: 1.56 z-score
GACGGACTGGGTGTCGGGACGTGCTAG: -0.9 z-score
ATGTCTTCCCCTCTCATTCCGTGCTAG: 2.26 z-score
TTAGATTTCAGGTTTCGATTAGTGCTA: 4.09 z-score
GACGAACTGGGGACTAGAGACGTGCTA: -0.218 z-score
GATGTTTTTCATTTTTTTTCGTGCTAG: 2.28 z-score
TTAGGACTGGTTCTCGGTTAGTGCTAG: 0.635 z-score
GCCGATATCAGACTGGAGACGTGCTAG: 0.00385 z-score
GACGATCACAGTCTCGAGACGTGCTAG: 0.208 z-score
TCATCTCTCCCATTCTGACTGTGCTAG: 2.27 z-score
GACCGTTTCGGGTATCGGGACGTGCTA: 3.87 z-score
CCTTCCATCACTTTCCACTTGTGCTAG: 5.6 z-score
GACGGCTTCGACACTGGGGACGTGCTA: -0.61 z-score
CGTACTGTATCTAGCCTTGCGTGCTAG: 0.934 z-score
TTAAAACTGGGGTTTCGATTAGTGCTA: 2.55 z-score
TTAGATCTTAGACTGGATTAGTGCTAG: -0.372 z-score
GATGATTCCAGTTTCGAGACGTGCTAG: 4.63 z-score
TTAGATCTCAGACTGGAATAGTGCTAG: -0.382 z-score
GACGGATTCGACTTTCGGGACGTGCTA: 4.17 z-score
TTTGATTTCAGACTGGATTAGTGCTAG: 0.686 z-score
TTAGGACTGGGGACTGGGATAGTGCTA: -1.04 z-score
GACGGTTTCCTTTCCCTGTCGTGCTAG: 5.36 z-score
GACGAACTGGAGACTGGAGACGTGCTA: -0.274 z-score
TTAGCTCTCGGACTGGGTTAGTGCTAG: -0.106 z-score

Block 3
Target: Prothrombin, mature alpha-thrombin (F2, Homo sapiens, UniProt P00734)
Method: aptamer microarray, sandwich
Form: DNA with 2'F-ANA
Sample: in vitro
Tested at: 200 nM
Setting: whole 15-mer aptamer, many near background
Added: Cy3 exosite-II aptamer, 400 nM
Reading: higher = stronger binding
Quantity: mean fluorescence intensity
Strand: GGTTGGTGTGGTTGG
2'F-ANA at 2 3 4 5 7 12: 218 a.u.
2'F-ANA at 1 2 4 5 6 8 9 11 15: 76.3 a.u.
2'F-ANA at 1 5 8 9 10 11 12 13 14: 47.9 a.u.
2'F-ANA at 2 3 4 5 6 8 9 10 11 12 14 15: 55.1 a.u.
2'F-ANA at 2 8 10 12 13 14 15: 82.2 a.u.
2'F-ANA at 1 2 3 4 5 6 9 10 13 15: 50.5 a.u.
2'F-ANA at 1 2 5 6 7 8 10 11 13: 58.2 a.u.
2'F-ANA at 1 4 7 9 12 14: 57.7 a.u.
2'F-ANA at 1 7 8 11 12 13 15: 289 a.u.
2'F-ANA at 3 4 6 15: 515 a.u.
2'F-ANA at 1 2 3 5 10 13 14: 47.9 a.u.
2'F-ANA at 3 4 9 10 12 15: 357 a.u.
2'F-ANA at 3 4 8 9 11 12 13: 626 a.u.
2'F-ANA at 1 2 4 5 7 8 9 10 13 14: 79.7 a.u.
2'F-ANA at 7 9 11 12 13: 579 a.u.
2'F-ANA at 3 5 7 8 14: 81.6 a.u.
2'F-ANA at 1 2 3 4 6 7 9 10 11 15: 58 a.u.
2'F-ANA at 1 2 4 6 9 11 14 15: 62.3 a.u.
2'F-ANA at 1 3 5 10 13 15: 48.6 a.u.
2'F-ANA at 1 2 4 5 6 12: 96.8 a.u.
2'F-ANA at 1 3 5 7 8 9 10 11 13 14 15: 53 a.u.
2'F-ANA at 3 4 5 7 8 9 10 11 12 13 15: 56 a.u.
2'F-ANA at 1 2 3 6 7 8 10 11 13: 63.6 a.u.
2'F-ANA at 1 3 5 9 14: 58 a.u.
2'F-ANA at 1 5 7 9 10 14 15: 43.4 a.u.

Block 4
Target: Histone acetyltransferase KAT6A, winged helix 1, GST fusion (KAT6A, Homo sapiens, UniProt Q92794, residues 1-85)
Method: protein binding microarray
Form: double-stranded DNA, one strand shown
Sample: in vitro
Tested at: not given
Setting: 8-mer, flanks averaged, mean of 2 arrays, mostly near background
Baseline: not given
Reading: higher = stronger binding
Quantity: E-score
Residues (chain): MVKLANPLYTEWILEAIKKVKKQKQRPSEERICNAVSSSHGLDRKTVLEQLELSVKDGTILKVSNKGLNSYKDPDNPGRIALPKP
AATAGGAA: -0.0507
GATTTAAC: 0.0787
CCGTTACG: 0.379
AGACCTAA: -0.0804
AAAGCTTC: -0.0453
GCACCCCC: -0.0299
GAGGCTAA: -0.137
TACCGTAA: 0.199
ATTAACCA: -0.0587
ACCCACGC: 0.136
AATTCGGT: 0.0177
CCGGCTTC: 0.252
AGGGACCC: 0.0735
AAGAATAT: -0.0715
CTGCTATC: -0.114
AACTATTG: 0.0104
CCTGTATA: -0.0748
ATGCGACA: 0.139

Block 5
Target: Sal-like protein 4, full length isoform A (SALL4, Homo sapiens, UniProt Q9UJQ4, residues 1-1053)
Chain of UniProt Q9UJQ4 (whole entry, looked up): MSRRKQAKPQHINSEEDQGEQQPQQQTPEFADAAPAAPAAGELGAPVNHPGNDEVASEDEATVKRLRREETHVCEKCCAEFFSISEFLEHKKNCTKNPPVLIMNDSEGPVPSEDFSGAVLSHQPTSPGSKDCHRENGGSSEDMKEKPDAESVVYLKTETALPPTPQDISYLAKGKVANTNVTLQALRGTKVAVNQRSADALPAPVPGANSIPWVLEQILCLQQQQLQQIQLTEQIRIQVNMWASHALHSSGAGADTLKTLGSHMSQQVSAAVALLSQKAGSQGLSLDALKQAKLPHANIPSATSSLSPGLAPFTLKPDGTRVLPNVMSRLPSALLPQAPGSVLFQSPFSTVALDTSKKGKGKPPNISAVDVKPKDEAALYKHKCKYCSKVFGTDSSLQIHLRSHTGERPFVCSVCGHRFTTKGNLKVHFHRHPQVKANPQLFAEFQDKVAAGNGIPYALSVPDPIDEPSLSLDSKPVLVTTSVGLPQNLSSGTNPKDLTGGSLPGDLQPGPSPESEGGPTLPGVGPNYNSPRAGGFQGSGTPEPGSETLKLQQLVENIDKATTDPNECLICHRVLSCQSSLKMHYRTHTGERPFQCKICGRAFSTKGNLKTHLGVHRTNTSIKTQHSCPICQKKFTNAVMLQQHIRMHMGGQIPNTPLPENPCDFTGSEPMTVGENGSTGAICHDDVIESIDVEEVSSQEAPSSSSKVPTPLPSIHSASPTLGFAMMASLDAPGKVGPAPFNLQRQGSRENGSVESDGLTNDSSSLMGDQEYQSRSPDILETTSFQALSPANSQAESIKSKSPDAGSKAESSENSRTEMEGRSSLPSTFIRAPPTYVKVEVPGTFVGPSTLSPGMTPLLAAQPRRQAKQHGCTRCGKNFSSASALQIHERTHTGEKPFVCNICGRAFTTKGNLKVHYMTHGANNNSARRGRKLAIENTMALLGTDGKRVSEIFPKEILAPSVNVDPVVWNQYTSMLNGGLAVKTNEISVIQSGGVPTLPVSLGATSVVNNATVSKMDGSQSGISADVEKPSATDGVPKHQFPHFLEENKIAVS
Method: universal PBM
Form: double-stranded DNA, one strand shown
Sample: in vitro
Tested at: 600 nM
Setting: 8-mer, flanks averaged, mean of replicates
Reading: higher = stronger binding
Quantity: E-score
CGTCACAC: -0.134
ATGTGTCC: -0.0756
AGCCCGCC: -0.386
ACGCTTCT: -0.136
GGCGTTCA: -0.261
GCTGGTTA: 0.0478
CAACCCAG: -0.262
CCACGTAC: -0.105
TCACCCGA: -0.163
ATCCTGAG: 0.0848
GACCCCCC: -0.335
GCCAAAGC: -0.168
CACACCAC: -0.0695
CGTAGCGA: -0.145
ATTCTCAA: 0.249
CGTTTTAA: 0.169
GGACGTGA: -0.171
CCGCAATA: 0.0746
